Published values collected from several papers.
Protocols differ between the studies behind these lines.

Compound	host	medium	route	dose	time	notes	Cmax [ng/mL]
CC(C)NC[C@@H](C(=O)N1CCN(c2ncnc3c2[C@H](C)C[C@H]3O)CC1)c1ccc(Cl)cc1	human, Healthy hepatic function	plasma	oral	100 mg single dose	–	NCI classification, geometric mean	50.9
Cc1nc2cccc(OCC(C)(C)C(=O)NC(C)C)c2c(N)c1C(=O)O	female Sprague-Dawley rat	plasma	oral	100 mg/kg	–	single dose	268
CO[C@H]1C[C@@H]2CC[C@@H](C)[C@@](O)(O2)C(=O)C(=O)N2CCCC[C@H]2C(=O)O[C@H]([C@H](C)C[C@@H]2CC[C@@H](O)[C@H](OC)C2)CC(=O)[C@H](C)/C=C(\C)[C@@H](O)[C@@H](OC)C(=O)[C@H](C)C[C@H](C)/C=C/C=C/C=C/1C	human	whole blood	oral	20 mg	–	compound alone	19.3
CC1=C2C[C@H]3[C@@H](CC[C@@H]4C[C@H](NS(C)(=O)=O)CC[C@@]43C)[C@@H]2CC[C@@]2(C1)O[C@@H]1C[C@H](C)CN[C@H]1[C@H]2C	patients	plasma	oral	160 mg single	day -7, cycle 1	–	87.4
CCCC[C@H](NC(C)=O)C(=O)N[C@H]1CCC(=O)NC[C@@H](C(=O)N[C@@H](Cc2c[nH]c3ccccc23)C(N)=O)NC(=O)[C@H](CCCNC(=N)N)NC(=O)[C@@H](Cc2ccccc2)NC(=O)[C@H](Cc2c[nH]cn2)NC1=O	CD Sprague Dawley rat, male	plasma	subcutaneous	5.0 mg/kg daily	day 14	–	1100
CNCc1ccc(-c2[nH]c3cc(F)cc4c3c2CCNC4=O)cc1	human	plasma	oral	300 mg	–	fasted, median	424
Cc1cc(Nc2cc3ncccc3c(N[C@@H]3C[C@H]4CC[C@@H](C3)N4CCC#N)n2)n[nH]1	beagle dog, female	plasma	oral	10 mg/kg/day	last day of 13 weeks	–	7.37
CCc1c(-c2ccccc2)c(-c2ccccc2)nn1-c1ccccc1-c1cccc(OCC(=O)O)c1	rat	plasma	oral	10 mg/kg	–	–	1260
CS(=O)(=O)Nc1ccc(C(=O)O[C@@H](Cc2c(Cl)c[n+]([O-])cc2Cl)c2ccc(OC(F)F)c(OCC3CC3)c2)cc1OCC1CC1	human	plasma	inhaled	1200 µg twice daily	day 1	multi-dose dry powder inhaler	0.547
